Experimental data collected from several papers.
Numbered parts are unrelated; each lists some results of a single study. Values joined by “and” are separate records of one study, mostly repeats; a detail may differ.
Chain of UniProt P00519 (whole entry, unmodified, looked up): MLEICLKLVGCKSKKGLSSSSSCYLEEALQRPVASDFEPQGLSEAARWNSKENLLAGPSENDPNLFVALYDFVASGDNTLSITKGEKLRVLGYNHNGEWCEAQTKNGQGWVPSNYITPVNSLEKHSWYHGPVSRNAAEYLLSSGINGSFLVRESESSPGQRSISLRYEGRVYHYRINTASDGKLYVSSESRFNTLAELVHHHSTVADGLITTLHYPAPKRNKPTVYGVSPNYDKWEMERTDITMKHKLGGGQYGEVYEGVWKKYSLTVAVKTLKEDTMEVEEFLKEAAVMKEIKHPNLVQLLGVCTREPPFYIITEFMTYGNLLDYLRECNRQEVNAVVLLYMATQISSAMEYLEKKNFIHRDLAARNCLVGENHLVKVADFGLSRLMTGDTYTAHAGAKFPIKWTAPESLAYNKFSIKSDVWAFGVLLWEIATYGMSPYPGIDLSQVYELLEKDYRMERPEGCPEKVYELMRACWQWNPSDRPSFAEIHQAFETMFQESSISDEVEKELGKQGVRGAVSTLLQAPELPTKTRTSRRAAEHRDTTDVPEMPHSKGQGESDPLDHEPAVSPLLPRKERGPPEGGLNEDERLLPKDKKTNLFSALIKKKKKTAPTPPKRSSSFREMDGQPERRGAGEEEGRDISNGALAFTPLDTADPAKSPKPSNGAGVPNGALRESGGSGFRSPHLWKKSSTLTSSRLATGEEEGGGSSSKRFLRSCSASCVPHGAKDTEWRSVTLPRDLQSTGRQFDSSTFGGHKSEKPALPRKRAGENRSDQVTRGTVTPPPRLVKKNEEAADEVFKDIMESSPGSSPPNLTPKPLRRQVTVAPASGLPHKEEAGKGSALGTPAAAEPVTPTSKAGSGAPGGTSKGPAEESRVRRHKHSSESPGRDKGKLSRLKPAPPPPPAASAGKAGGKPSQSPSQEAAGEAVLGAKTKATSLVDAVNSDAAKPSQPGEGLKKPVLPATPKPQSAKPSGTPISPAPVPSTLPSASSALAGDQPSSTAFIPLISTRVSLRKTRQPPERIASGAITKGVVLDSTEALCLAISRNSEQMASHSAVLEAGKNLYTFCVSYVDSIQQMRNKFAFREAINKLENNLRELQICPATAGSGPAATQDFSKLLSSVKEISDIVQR
Chain of UniProt Q8N5S9 (whole entry, looked up): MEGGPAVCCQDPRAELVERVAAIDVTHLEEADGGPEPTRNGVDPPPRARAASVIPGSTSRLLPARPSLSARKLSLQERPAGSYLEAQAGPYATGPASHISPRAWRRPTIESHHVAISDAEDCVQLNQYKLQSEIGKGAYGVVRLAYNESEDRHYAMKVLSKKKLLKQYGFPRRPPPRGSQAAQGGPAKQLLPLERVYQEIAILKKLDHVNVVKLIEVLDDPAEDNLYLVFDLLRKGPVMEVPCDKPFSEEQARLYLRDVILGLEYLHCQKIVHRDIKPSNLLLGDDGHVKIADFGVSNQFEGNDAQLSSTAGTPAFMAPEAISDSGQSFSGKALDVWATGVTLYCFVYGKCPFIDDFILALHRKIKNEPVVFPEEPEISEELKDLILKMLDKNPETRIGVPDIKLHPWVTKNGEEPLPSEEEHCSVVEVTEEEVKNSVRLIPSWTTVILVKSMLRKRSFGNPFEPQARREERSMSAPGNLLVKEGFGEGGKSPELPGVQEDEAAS
Chain of UniProt Q8WU08 (whole entry, looked up): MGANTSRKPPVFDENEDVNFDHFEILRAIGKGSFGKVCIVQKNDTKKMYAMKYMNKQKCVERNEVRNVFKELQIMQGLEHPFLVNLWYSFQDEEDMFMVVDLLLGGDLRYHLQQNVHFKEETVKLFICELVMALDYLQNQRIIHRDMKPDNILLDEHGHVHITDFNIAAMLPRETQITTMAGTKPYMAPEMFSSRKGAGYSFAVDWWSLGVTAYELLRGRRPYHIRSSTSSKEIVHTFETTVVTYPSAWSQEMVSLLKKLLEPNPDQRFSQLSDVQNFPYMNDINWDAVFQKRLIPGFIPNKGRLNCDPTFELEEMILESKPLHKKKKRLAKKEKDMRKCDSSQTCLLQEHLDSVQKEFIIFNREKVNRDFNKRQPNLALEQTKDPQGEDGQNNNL

Set 1 — effect on: RNA clamping; technique: fluorescence polarization; tested at: concentration not given; notes: mean of two replicates; together with: FAM-labelled poly r(AG)8 RNA
Target: Eukaryotic initiation factor 4A-I (EIF4A1, Homo sapiens, UniProt P60842)
Chain of UniProt P60842 (whole entry, looked up): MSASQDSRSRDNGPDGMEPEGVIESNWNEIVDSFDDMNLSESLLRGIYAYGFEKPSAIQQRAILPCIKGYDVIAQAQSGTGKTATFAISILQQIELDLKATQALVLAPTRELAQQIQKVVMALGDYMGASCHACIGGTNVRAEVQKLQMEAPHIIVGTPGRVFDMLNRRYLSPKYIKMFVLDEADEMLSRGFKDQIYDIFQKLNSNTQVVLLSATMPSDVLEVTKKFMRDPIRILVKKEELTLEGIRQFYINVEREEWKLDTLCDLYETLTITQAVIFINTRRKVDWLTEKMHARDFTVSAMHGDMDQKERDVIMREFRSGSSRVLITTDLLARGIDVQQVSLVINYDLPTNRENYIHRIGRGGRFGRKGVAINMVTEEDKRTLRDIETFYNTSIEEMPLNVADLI
Compound	fluorescence polarization change
COc1cc(OC)c2c(c1)N(C)[C@]1(c3ccc(Br)cc3)C(=O)[C@@]2(O)[C@H](c2ccccc2)[C@H]1c1ccccc1	1.6 mP
COC(=O)[C@H]1C(=O)[C@@]2(NN(C)C)c3c(OC)cc(OC)cc3O[C@@]2(c2ccc(OC)cc2)[C@@H]1c1ccccc1	3.6 mP
COC(=O)[C@@H]1[C@@H](c2ccccc2)[C@]2(c3ccc(OC)cc3)Oc3cc(OC)cc(OC)c3[C@@]1(O)C2(O)O	2.1 mP
CCCCN[C@@]12C(=O)[C@H](C(=O)OC)[C@@H](c3ccccc3)[C@]1(c1ccc(OC)cc1)Oc1cc(OC)cc(OC)c12	15.7 mP
COc1cc(OC)c2c(c1)O[C@@]1(c3ccc(Br)cc3)[C@H](c3ccccc3)C3=C(O[C@@H]4CCCN4C3=O)[C@@]21O	58.5 mP
C#CCCC1(CCNC(=O)CCCn2c(-c3ccccc3)nc3c(c2=O)[C@@H](c2ccccc2)[C@]2(c4ccc(OC)cc4)Oc4cc(OC)cc(OC)c4[C@]32O)N=N1	6.2 mP
COC(=O)[C@@H]1[C@@H](c2ccccc2)[C@]2(c3ccc(OC)cc3)Oc3cc(OC)cc(OC)c3[C@@]23NC(C2CCC2)=N[C@@]13O	65.6 mP
COc1ccc([C@@]23Oc4cc(OC)cc(OC)c4[C@]2(O)c2nc(C4CC4)[nH]c(=O)c2[C@H]3c2ccccc2)cc1	48.3 mP and 60.7 mP and 66.7 mP
COC(=O)[C@H]1C(=O)[C@@]2(NCCN(C)C)c3c(OC)cc(OC)cc3O[C@@]2(c2ccc(OC)cc2)[C@@H]1c1ccccc1	3.7 mP
C=CCN[C@@]12C(=O)[C@H](C(=O)OC)[C@@H](c3ccccc3)[C@]1(c1ccc(OC)cc1)Oc1cc(OC)cc(OC)c12	-3.8 mP
COCCOCOC(=C(F)F)c1ccc([C@@H]2[C@@H](C(=O)N(C)OC)[C@@H](O)[C@@]3(O)c4c(OC)cc(OC)cc4O[C@@]23c2ccc(OC)cc2)cc1	-8.8 mP
CCOC(=O)COc1cc(OC)c2c(c1)O[C@@]1(c3ccc(OC)cc3)[C@H](c3ccccc3)c3c(nc(-c4ccccc4)[nH]c3=O)[C@@]21OCC(=O)OCC	-7.4 mP
COc1ccc([C@@]23Oc4cc(OC)cc(OC)c4[C@]2(O)[C@H](O)[C@H](C(=O)c2ccccc2OC)[C@H]3c2ccccc2)cc1	10.6 mP
COc1ccc([C@]23Oc4cc(OC)cc(OC)c4[C@](O)([C@H](C(=O)OCc4ccccc4)[C@H]2c2ccccc2)[C@@H]3O)cc1	1.4 mP
C#CCOc1ccc(-c2nc3c(c(=O)n2CC#C)[C@@H](c2ccccc2)[C@]2(c4ccc(OC)cc4)Oc4cc(OC)cc(OC)c4[C@]32O)cc1	-2 mP

Set 2 — effect on: enzyme activity; action: inhibitor; tested at: 77 µM; relative to: untreated
Target: DNA polymerase theta, ATPase domain (POLQ, Homo sapiens, UniProt O75417)
Chain of UniProt O75417 (whole entry, unmodified, looked up): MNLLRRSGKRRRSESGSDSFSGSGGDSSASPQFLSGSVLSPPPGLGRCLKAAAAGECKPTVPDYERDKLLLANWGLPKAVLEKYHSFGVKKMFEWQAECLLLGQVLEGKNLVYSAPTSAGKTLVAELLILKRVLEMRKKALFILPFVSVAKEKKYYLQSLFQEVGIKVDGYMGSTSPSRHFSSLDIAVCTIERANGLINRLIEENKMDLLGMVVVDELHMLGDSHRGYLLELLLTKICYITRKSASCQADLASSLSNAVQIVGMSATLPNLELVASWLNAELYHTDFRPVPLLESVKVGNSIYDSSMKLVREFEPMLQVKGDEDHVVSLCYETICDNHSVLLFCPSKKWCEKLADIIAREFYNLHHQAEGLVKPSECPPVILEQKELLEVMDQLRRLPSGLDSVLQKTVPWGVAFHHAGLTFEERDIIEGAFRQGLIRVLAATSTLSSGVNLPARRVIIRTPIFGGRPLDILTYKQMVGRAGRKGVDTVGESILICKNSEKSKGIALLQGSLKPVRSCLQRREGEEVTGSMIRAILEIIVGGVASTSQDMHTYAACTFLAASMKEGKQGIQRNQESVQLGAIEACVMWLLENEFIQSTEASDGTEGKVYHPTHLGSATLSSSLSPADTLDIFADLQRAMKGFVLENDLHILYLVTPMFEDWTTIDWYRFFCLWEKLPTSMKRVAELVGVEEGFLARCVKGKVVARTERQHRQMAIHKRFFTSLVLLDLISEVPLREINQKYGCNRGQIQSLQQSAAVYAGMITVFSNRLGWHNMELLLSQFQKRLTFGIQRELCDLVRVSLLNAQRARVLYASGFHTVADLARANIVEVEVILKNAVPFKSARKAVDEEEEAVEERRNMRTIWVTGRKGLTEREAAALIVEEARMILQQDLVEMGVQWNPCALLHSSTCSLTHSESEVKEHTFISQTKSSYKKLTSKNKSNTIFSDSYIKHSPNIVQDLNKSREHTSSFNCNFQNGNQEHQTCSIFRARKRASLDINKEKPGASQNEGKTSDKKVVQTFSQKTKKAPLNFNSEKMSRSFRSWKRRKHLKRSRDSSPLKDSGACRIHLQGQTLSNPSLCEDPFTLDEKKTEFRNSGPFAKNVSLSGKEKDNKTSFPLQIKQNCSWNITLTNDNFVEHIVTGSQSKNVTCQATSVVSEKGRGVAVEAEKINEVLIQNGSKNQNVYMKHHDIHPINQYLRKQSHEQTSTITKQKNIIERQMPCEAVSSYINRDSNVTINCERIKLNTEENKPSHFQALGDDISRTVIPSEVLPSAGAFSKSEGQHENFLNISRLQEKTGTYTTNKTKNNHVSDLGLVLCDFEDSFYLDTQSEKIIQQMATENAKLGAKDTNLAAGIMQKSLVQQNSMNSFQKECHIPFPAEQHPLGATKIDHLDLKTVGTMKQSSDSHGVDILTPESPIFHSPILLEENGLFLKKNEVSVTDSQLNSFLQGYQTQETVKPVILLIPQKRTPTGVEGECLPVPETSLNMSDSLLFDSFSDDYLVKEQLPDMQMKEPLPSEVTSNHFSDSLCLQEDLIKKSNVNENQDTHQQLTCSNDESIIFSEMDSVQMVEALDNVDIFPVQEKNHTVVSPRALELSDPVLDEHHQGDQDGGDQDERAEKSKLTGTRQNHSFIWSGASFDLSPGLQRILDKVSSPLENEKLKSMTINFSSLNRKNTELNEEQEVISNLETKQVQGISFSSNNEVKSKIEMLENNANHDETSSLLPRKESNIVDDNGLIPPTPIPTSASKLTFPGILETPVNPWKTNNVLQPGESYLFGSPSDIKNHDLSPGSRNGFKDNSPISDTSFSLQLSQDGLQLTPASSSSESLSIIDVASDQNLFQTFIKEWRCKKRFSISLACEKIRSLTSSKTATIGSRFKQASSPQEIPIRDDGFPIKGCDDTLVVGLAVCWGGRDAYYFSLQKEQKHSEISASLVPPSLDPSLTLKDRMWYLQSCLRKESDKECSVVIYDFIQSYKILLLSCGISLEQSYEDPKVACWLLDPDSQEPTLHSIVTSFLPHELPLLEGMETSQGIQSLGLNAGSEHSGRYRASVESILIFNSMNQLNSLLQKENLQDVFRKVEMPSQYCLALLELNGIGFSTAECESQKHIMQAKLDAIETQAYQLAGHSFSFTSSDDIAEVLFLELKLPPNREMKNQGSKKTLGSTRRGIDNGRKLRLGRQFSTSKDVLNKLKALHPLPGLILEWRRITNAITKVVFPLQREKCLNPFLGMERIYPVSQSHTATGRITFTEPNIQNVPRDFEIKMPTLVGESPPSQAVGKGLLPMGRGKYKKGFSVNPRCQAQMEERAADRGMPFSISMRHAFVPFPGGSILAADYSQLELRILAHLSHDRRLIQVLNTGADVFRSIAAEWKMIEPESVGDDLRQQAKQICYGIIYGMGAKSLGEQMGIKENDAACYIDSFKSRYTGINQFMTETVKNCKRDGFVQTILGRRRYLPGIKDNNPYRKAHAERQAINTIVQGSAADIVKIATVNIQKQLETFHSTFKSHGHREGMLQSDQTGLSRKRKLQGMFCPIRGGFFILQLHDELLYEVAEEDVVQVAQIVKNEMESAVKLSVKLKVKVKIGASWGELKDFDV
SMILES	remaining activity [%]
COc1cc2ncnc(Nc3ccc(Cl)cc3F)c2cc1OC	88.8
Nc1nc(=O)n([C@@H]2CS[C@H](CO)O2)cc1F	99.9
CC(C)c1cc(-c2ccc(F)c3ccccc23)nc(N)n1	102
N=C(N)Nc1ccc(C(=O)Oc2ccc3cc(C(=N)N)ccc3c2)cc1	105
Cc1nc(N(C)C(=O)Cc2ccc(-c3ccccn3)cc2)sc1S(N)(=O)=O	100
COc1ccc(C[C@H](NC(=O)[C@H](C)NC(=O)CN2CCOCC2)C(=O)N[C@@H](Cc2ccccc2)C(=O)[C@@]2(C)CO2)cc1	102
CN(C)CCn1nnnc1SCC1=C(C(=O)O)N2C(=O)[C@@H](NC(=O)Cc3csc(N)n3)[C@H]2SC1	98.7
Nc1ccccc1NC(=O)c1ccc(CNC(=O)OCc2cccnc2)cc1	92.4
CN1CCCN=C1/C=C/c1cccs1	101

Set 3 — technique: competition with immobilised ligand; tested at: 1 µM
Structure (SMILES): C[C@H](NC(=O)c1cnc2n1[C@](C)(Cc1ccc(C#N)cc1)C(=O)N2c1cc(Cl)c(F)c(Cl)c1)C(=O)NC1(c2ccccn2)CC1
target	assay	remaining binding
WEE2 (Homo sapiens, UniProt P0C1S8)	cell-free assay	100%
CDK11A (Homo sapiens, UniProt Q9UQ88)	binding	100%
Myosin-IIIa (MYO3A, Homo sapiens, UniProt Q8NEV4)	binding	100%
STK32A (Homo sapiens, UniProt Q8WU08)	cell-free assay	83%
FER (Homo sapiens, UniProt P16591)	cell-free assay	100%
ACVR2A (Homo sapiens, UniProt P27037)	cell-free assay	92%
EIF2AK2 (Homo sapiens, UniProt P19525)	cell-free assay	34%
CDK15 (Homo sapiens, UniProt Q96Q40)	cell-free assay	100%
CAMK1 (Homo sapiens, UniProt Q14012)	cell-free assay	96%
PIP4K2B (Homo sapiens, UniProt P78356)	cell-free assay	100%
RIPK4 (Homo sapiens, UniProt P57078)	cell-free assay	100%
Aurora kinase A (AURKA, Homo sapiens, UniProt O14965)	cell-free assay	100%
Tyrosine-protein kinase ABL1, phosphorylated (ABL1, Homo sapiens, UniProt P00519)	cell-free assay	100%
FLT3 (Homo sapiens, UniProt P36888, D835Y)	cell-free assay	100%
NEK4 (Homo sapiens, UniProt P51957)	cell-free assay	100%
CILK1 (Homo sapiens, UniProt Q9UPZ9)	cell-free assay	100%
RET (Homo sapiens, UniProt P07949, M918T)	cell-free assay	100%
HIPK3 (Homo sapiens, UniProt Q9H422)	cell-free assay	100%
PRKG2 (Homo sapiens, UniProt Q13237)	cell-free assay	85%
STK39 (Homo sapiens, UniProt Q9UEW8)	cell-free assay	24%

Set 4 — tested at: 1 µM
SMILES: Cc1ccc(NC(=O)c2ccnc(C(F)(F)F)c2)cc1-c1cc(OCCO)nc(N2CCOCC2)c1
target	assay	setting	how to read	remaining binding
STK35 (Homo sapiens, UniProt Q8TDR2)	competitive binding panel	–	relative to: vehicle	98%
CAMKK1 (Homo sapiens, UniProt Q8N5S9)	competitive binding panel	–	relative to: vehicle	97%
PRKCD (Homo sapiens, UniProt Q05655)	competitive binding panel	–	relative to: vehicle	100%
NUAK1 (Homo sapiens, UniProt O60285)	competitive binding panel, refers to: ARK5	–	relative to: vehicle	98%
CSNK1E (Homo sapiens, UniProt P49674)	competitive binding panel	–	relative to: vehicle	100%
PRKD1 (Homo sapiens, UniProt Q15139)	competitive binding panel	–	relative to: vehicle	100%
ROCK1 (Homo sapiens, UniProt Q13464)	competitive binding panel	–	relative to: vehicle	89%
PRKD3 (Homo sapiens, UniProt O94806)	competitive binding panel	–	relative to: vehicle	100%
STK3 (Homo sapiens, UniProt Q13188)	competitive binding panel, refers to: MST2	–	relative to: vehicle	79%
ABL1 (Homo sapiens, UniProt P00519, F317L)	competitive binding panel	–	relative to: vehicle	84%
MAP2K7 (Homo sapiens, UniProt O14733)	competitive binding panel, refers to: MKK7	–	relative to: vehicle	100%
RPS6KA4 (Homo sapiens, UniProt O75676)	competitive binding scan	C-terminal kinase domain 2	–	100%

A few entries again (set 4):
target	assay	setting	how to read	remaining binding
PRKD3 (Homo sapiens, UniProt O94806)	competitive binding panel	–	relative to: vehicle	100%
MAP2K7 (Homo sapiens, UniProt O14733)	competitive binding panel, refers to: MKK7	–	relative to: vehicle	100%
CAMKK1 (Homo sapiens, UniProt Q8N5S9)	competitive binding panel	–	relative to: vehicle	97%
ROCK1 (Homo sapiens, UniProt Q13464)	competitive binding panel	–	relative to: vehicle	89%
ABL1 (Homo sapiens, UniProt P00519, F317L)	competitive binding panel	–	relative to: vehicle	84%
STK3 (Homo sapiens, UniProt Q13188)	competitive binding panel, refers to: MST2	–	relative to: vehicle	79%
NUAK1 (Homo sapiens, UniProt O60285)	competitive binding panel, refers to: ARK5	–	relative to: vehicle	98%
PRKCD (Homo sapiens, UniProt Q05655)	competitive binding panel	–	relative to: vehicle	100%
STK35 (Homo sapiens, UniProt Q8TDR2)	competitive binding panel	–	relative to: vehicle	98%
